Published values gathered from unrelated publications.
A part holds a random share of what one study measured. Substitutions count along the parent as printed.

Set 1
Target: CCND3, cyclin fold, Cln2 fusion (human)
Technique: yeast growth competition, sequencing
Sample: yeast
Setting: weak parent motif
Baseline: not given
Direction: higher = stronger binding
Parent: WEE1 docking peptide (human); HKTFRKLRLFDTP; partner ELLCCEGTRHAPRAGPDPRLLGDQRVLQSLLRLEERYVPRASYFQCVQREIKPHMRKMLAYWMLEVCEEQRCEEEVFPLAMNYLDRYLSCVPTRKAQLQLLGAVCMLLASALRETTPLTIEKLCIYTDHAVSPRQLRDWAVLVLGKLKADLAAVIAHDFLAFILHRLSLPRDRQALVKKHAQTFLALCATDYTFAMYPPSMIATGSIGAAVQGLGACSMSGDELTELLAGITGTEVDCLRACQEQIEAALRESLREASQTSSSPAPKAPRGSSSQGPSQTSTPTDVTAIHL
`R8A`: “normalised enrichment score” 0.0772.
Under “normalised enrichment score”, `L7H` is recorded as 0.0639.
`L7S` — result for “normalised enrichment score”: 0.119.
For `F4T`, “normalised enrichment score” read 0.131.
Under “normalised enrichment score”, `T3R` is recorded as 0.101.
`L9G` — result for “normalised enrichment score”: 0.115.
Under “normalised enrichment score”, `P13N` is recorded as 0.214.
`P13E` — result for “normalised enrichment score”: 0.0647.
`D11P` — result for “normalised enrichment score”: 0.115.
For `P13I`, “normalised enrichment score” read 0.0214.
For `F10L`, “normalised enrichment score” read 0.0581.
`L7D` — result for “normalised enrichment score”: -0.0347.
`K6M`: “normalised enrichment score” 0.061.
Under “normalised enrichment score”, `F10G` is recorded as -0.0135.
`R8G`: “normalised enrichment score” 0.0716.
`F10E`: “normalised enrichment score” 0.0274.
`K6A`: “normalised enrichment score” 0.0434.
`F4S`: “normalised enrichment score” 0.0781.
Under “normalised enrichment score”, `P13H` is recorded as 0.0493.
`R8Q` — result for “normalised enrichment score”: 0.258.
For `K6T`, “normalised enrichment score” read 0.192.
For `F4Q`, “normalised enrichment score” read 0.0947.
`R8L` — result for “normalised enrichment score”: 0.0923.
Under “normalised enrichment score”, `T3A` is recorded as 0.0976.
Under “normalised enrichment score”, `R5E` is recorded as 0.146.

Set 2
Target: Transcriptional repressor CTCF (CTCF, Homo sapiens, UniProt P49711, residues 1-727, full length assumed)
Technique: protein-binding microarray
Molecule type: double-stranded DNA, one strand shown
Sample: in vitro
Concentration: not given
Setting: k-mer, scored over probes, only values ≥0.25
Direction: higher = stronger binding
Target sequence (chain): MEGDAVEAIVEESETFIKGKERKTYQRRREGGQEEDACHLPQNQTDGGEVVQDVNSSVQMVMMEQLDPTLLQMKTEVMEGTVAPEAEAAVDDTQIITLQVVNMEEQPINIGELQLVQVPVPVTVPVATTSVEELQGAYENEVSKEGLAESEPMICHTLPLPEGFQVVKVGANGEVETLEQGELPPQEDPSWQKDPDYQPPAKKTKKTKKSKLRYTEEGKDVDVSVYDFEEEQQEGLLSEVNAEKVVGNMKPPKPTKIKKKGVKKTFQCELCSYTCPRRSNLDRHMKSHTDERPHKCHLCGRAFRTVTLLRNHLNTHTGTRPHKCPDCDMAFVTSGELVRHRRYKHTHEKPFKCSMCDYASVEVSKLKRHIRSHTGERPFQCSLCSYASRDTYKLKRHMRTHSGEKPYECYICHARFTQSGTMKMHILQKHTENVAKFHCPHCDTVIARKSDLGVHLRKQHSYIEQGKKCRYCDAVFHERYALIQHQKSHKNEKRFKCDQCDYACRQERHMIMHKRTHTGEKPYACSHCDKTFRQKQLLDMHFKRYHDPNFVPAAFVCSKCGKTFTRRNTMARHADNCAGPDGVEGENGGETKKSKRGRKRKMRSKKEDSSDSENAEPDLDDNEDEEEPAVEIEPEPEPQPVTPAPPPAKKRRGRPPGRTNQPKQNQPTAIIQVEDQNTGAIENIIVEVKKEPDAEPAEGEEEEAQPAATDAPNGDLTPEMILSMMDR
For `ACTAGTGG`, the E-score was 0.28.
`AGTGGCGC` has an E-score of 0.459.
`AGCGCAAT` gave an E-score of 0.332.
`TATGTGCA` has an E-score of 0.325.
For `ATATGGCG`, the E-score was 0.259.
The E-score of `TAACGCAA` is reported as 0.268.
For `TACCACAA`, the E-score was 0.322.
For `ATACTTAA`, the E-score was 0.26.
For `AAAAAAAT`, the E-score was 0.298.
The E-score of `ATAATTGC` is reported as 0.319.
`TAACAGTA` gave an E-score of 0.297.
`TAAATATA` has an E-score of 0.374.
The E-score of `AAGTATAC` is reported as 0.315.
`ATTAGTGC` has an E-score of 0.278.
For `GATTAATA`, the E-score was 0.36.
The E-score of `CGAGTATA` is reported as 0.277.
For `AAGTAATT`, the E-score was 0.29.
`CTTGCGCA` gave an E-score of 0.333.
For `ATACTACA`, the E-score was 0.26.
With `CGTATTTA` the E-score was 0.333.
With `ATCGTAAT` the E-score was 0.258.
The E-score of `ACCAATTA` is reported as 0.256.
For `GTAACACA`, the E-score was 0.296.

Set 3
Target: ABI1, truncated, D143A, DHFR fusion (Arabidopsis thaliana)
Technique: DHFR PCA, deep sequencing
Sample: yeast
Setting: methotrexate growth selection, single substitutions
Together with: (+)-ABA 0 µM
Baseline: wild-type fitted maximum
Direction: higher = stronger binding
Parent: PYL1, truncated, DHFR fusion (Arabidopsis thaliana); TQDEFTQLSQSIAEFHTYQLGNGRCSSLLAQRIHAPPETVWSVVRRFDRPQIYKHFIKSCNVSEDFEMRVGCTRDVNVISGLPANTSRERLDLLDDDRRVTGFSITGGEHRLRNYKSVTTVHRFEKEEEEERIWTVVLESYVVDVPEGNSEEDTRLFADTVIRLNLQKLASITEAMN
Under “relative binding score”, `A30S` is recorded as 24.1%.
Under “relative binding score”, `Y53C` is recorded as -2.17%.
For `E109H`, “relative binding score” read 3.18%.
`R74G`: “relative binding score” 3.78%.
Under “relative binding score”, `R113W` is recorded as 2.72%.
For `S11R`, “relative binding score” read -0.106%.
Under “relative binding score”, `L91E` is recorded as 3.25%.
For `S104Y`, “relative binding score” read -3.24%.
`A170T` — result for “relative binding score”: 0.295%.
For `S27T`, “relative binding score” read -2.06%.
`F157R` — result for “relative binding score”: 11%.
For `E127I`, “relative binding score” read 14.7%.
`D3P`: “relative binding score” 19.6%.
`F124K` — result for “relative binding score”: 6.7%.
`K54A` — result for “relative binding score”: 1.61%.

Set 4
Target: JUND, bZIP domain (human)
Technique: DHFR protein complementation
Sample: yeast
Setting: single substitutions, most at no-binding floor
Baseline: wild-type JUN-FOS pair
Direction: higher = stronger binding
Parent: JUN, bZIP domain (human); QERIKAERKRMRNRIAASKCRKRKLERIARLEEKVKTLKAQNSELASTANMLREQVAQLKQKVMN; partner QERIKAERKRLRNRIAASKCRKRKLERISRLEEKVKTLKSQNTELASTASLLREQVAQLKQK
`V35F` gave a binding fitness of -1.15 natural log.
`Q55V` gave a binding fitness of -1.11 natural log.
`V56Y` gave a binding fitness of -0.938 natural log.
With `R53S` the binding fitness was -1.13 natural log.
The binding fitness of `Q55C` is reported as -0.915 natural log.
`E33G` has a binding fitness of -1.06 natural log.
The binding fitness of `E33K` is reported as -0.778 natural log.
`E44H` gave a binding fitness of -0.853 natural log.
`A40T` has a binding fitness of -0.665 natural log.
`V56L` gave a binding fitness of -0.551 natural log.
`A49S` gave a binding fitness of -0.966 natural log.
`S43V` has a binding fitness of -0.748 natural log.
`E32Q` gave a binding fitness of -1.01 natural log.

A few entries again (set 1):
Under “normalised enrichment score”, `R5E` is recorded as 0.146.
For `F4Q`, “normalised enrichment score” read 0.0947.
Under “normalised enrichment score”, `T3R` is recorded as 0.101.
`L7S` — result for “normalised enrichment score”: 0.119.
`R8A`: “normalised enrichment score” 0.0772.
For `K6T`, “normalised enrichment score” read 0.192.
Under “normalised enrichment score”, `P13H` is recorded as 0.0493.
`R8G`: “normalised enrichment score” 0.0716.
`D11P` — result for “normalised enrichment score”: 0.115.
Under “normalised enrichment score”, `L7H` is recorded as 0.0639.
